Results from different studies.
Lines come from different studies, so protocols differ. ± gives the spread as reported.

| SMILES | test | test system | setting | Cmax |
| --- | --- | --- | --- | --- |
| CCc1nc2c(C)cc(N3CCN(CC(=O)N4CC(O)C4)CC3)cn2c1N(C)c1nc(-c2ccc(F)cc2)c(C#N)s1 |  | healthy volunteers, plasma | oral, 600 mg once daily multiple doses | 10600 ng/mL |
| C[C@H](NC(=O)/C(C#N)=C/c1cccc(Br)n1)c1ccccc1 | LC-MS/MS | patients, plasma | oral, 2 mg/kg, cycle 1 day 8 | 31.8 ng/mL |
| N[C@@H]1c2ccccc2OC12CCN(c1cnc3c(N4CCCc5ncccc54)n[nH]c3n1)CC2 |  | advanced metastatic solid tumour patients, plasma | oral, 40 mg once daily, cycle 1 day 15, geometric mean | 624 ng/mL |
| CCCCCCCOc1ccc(CCC(N)(CO)CO)cc1C(F)(F)F.Cl |  | healthy men, plasma | oral, 0.25 mg, day 21 | 1.87 ng/mL |
| O=C(O)c1cc(O)c(O)c(O)c1 |  | broiler chickens, serum | oral, in feed, 2000 mg/kg feed, 24 h, corn diet, no tannins | 360 ± 80 nM |
| O=C(c1cccnc1-c1ccncc1)N1CCC(O)(Cc2ccccc2)CC1 |  | healthy Japanese adults, plasma | oral, 600 mg single dose, arithmetic mean | 3280 ng/mL |
| C[C@@H](N)C1CCN(S(=O)(=O)c2cccc3cnccc23)CC1 |  | healthy volunteers, plasma | oral, 150 mg, fed, single dose | 18.5 ng/mL |
| COc1nnc2ccc(N3CCC(c4ccc(OCCN5CCN(C)C(=O)[C@H]5C)cc4)CC3)nn12 |  | patients, plasma | oral, 10 mg twice daily, single dose, monotherapy | 53 nM |
| C[C@@](Cc1ccc(O)c(O)c1)(NN)C(=O)O |  | Parkinson's disease patients, plasma | oral, high levodopa Cmax subgroup (≥9 µmol/L), median | 310 nM |
| OC[C@H]1O[C@@H](c2ccc(F)c(Cc3cc4ccccc4s3)c2)[C@H](O)[C@@H](O)[C@@H]1O |  | Japanese type 2 diabetes patients, plasma | oral, 100 mg/day, day 1 | 2300 ± 737 ng/mL |

Some of these lines once more:
| SMILES | test | test system | setting | Cmax |
| --- | --- | --- | --- | --- |
| CCCCCCCOc1ccc(CCC(N)(CO)CO)cc1C(F)(F)F.Cl |  | healthy men, plasma | oral, 0.25 mg, day 21 | 1.87 ng/mL |
